Experimental data of several laboratories.
Each line is one published result; not all experiments were run side by side.

| SMILES | method | sample | concentration | time | unbound fraction |
| --- | --- | --- | --- | --- | --- |
| Cc1[nH]nc2c1N=C(c1ccccc1Cl)c1cnc(N3CCOCC3)cc1N2 |  | human plasma |  |  | 0.025 |
| Fc1cccc(-c2cc3cn[nH]c3nn2)c1F | rapid equilibrium dialysis | mouse plasma | 3 µM |  | 0.087 |
| CCC1(CC)CC(=O)N(C2c3cc(C(=O)NC4c5ccccc5CC4O)ccc3OC2(C)COC)C(=N)N1 (stereo not shown) |  | dog plasma |  |  | 0.135 |
| COc1cc2cn[nH]c2nn1 | rapid equilibrium dialysis | mouse plasma | 3 µM |  | 0.727 |
| C=CC(=O)Nc1cc(Nc2nccc(Nc3cc(Cl)c(F)cc3C(C)(C)O)n2)c(OC)cc1N(C)CCN(C)C |  | human plasma |  |  | 13.3% |
| CC(C)(C)n1ncc2c(=O)n(Cc3cccc(F)c3)c(NCc3ccc(F)cn3)nc21 |  | human plasma |  |  | 1% |
| C=CC(=O)Nc1cc(Nc2ncnc(Nc3ccccc3S(N)(=O)=O)n2)c(OC)cc1N(C)CCN(C)C |  | human plasma |  |  | 71.1% |
| CCC1(CC)CC(=O)N(C2CCOc3ccc(C(=O)NC4CC(C)(C)Oc5ccccc54)cc32)C(=N)N1 (stereo not shown) |  | mouse plasma |  |  | 0.055 |
| C=CC(=O)Nc1cc(Nc2ncnc(Nc3ccc(F)c(Cl)c3)n2)c(OC)cc1N(C)CCN(C)C |  | human plasma |  |  | 14.8% |
| COC1C(c2ccc(Cl)c(Cc3ccc(OC4CCOC4)cc3)c2)OC(CO)C(O)C1O (stereo not shown) |  | rat plasma | 1 µM | 5 h | 0.068 |

A few entries again:
| SMILES | method | sample | concentration | time | unbound fraction |
| --- | --- | --- | --- | --- | --- |
| COC1C(c2ccc(Cl)c(Cc3ccc(OC4CCOC4)cc3)c2)OC(CO)C(O)C1O (stereo not shown) |  | rat plasma | 1 µM | 5 h | 0.068 |
